Measurements of several laboratories.
Every numbered part comes from another study and shows a few of its results, in no order.

Block 1 — method: universal PBM; form: double-stranded DNA, one strand shown; medium: in vitro; concentration: not given; reading: higher = stronger binding; quantity: E-score
Target: Sal-like protein 4, full length isoform B (SALL4, Homo sapiens, UniProt Q9UJQ4-2, residues 1-616)
Notes: 8-mer, flanks averaged, mean of replicates
AAGAGTGA: 0.119
AGTCTCAG: -0.156
ACAAAGCC: -0.186
ATTTTTAC: 0.386
TCGCTCAA: -0.14

Block 2 — method: aptamer microarray, sandwich; form: DNA with 2'F-ANA; medium: in vitro; concentration: 200 nM; together with: Cy3 exosite-II aptamer, 400 nM; reading: higher = stronger binding; quantity: mean fluorescence intensity; sequence: GGTTGGTGTGGTTGG
Target: Prothrombin, mature alpha-thrombin (F2, Homo sapiens, UniProt P00734)
Notes: whole 15-mer aptamer, many near background
2'F-ANA at 3 4 5 7 9: 101 a.u.
2'F-ANA at 2 3 5 9 10 12: 62.5 a.u.
2'F-ANA at 1 5 7 9 10 12 13 14: 46.8 a.u.
2'F-ANA at 1 3 4 5 10 12 13 15: 47.5 a.u.
2'F-ANA at 1 3 8 10 11 12 13: 104 a.u.
2'F-ANA at 5 6 10 12 14 15: 44.5 a.u.

Block 3 — method: protein binding microarray; form: double-stranded DNA, one strand shown; medium: in vitro; concentration: not given; relative to: not given; reading: higher = stronger binding; quantity: E-score
Target: Histone acetyltransferase KAT6A, winged helix 2, GST fusion (KAT6A, Homo sapiens, UniProt Q92794, residues 85-181)
Notes: 8-mer, flanks averaged, mean of 2 arrays, mostly near background
Target sequence (chain): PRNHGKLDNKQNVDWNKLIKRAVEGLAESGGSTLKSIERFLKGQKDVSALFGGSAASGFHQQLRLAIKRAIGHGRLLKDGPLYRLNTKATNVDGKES
AATCCACC: -0.0909
ATCCCCCG: 0.0659
ACAACCTG: -0.0959
AAGCTTAC: -0.0287
AGTAGTAA: -0.197
AGCACTGG: -0.0645
ATCCGCCC: 0.181

Mixed results
PhoQ, residues 284 288 289 292 302 303 GANMMA
fold induction (PhoP, residues 12 14 15 18 19 NFCKL (Escherichia coli, UniProt P23836); Sort-seq, item: YFP reporter; E. coli; PhoQ-PhoP variant library, together with: 10 µM Mg2+; relative to: high Mg2+ state, higher = stronger signaling): 0.786
